Results of several laboratories.
Numbered parts are unrelated; each lists some results of a single study. Values joined by “and” are separate records of one study, mostly repeats; a detail may differ.

Sample 1 — cell line: A-375; concentration: 100 µM; time: 36 h
For NCC(CC(=O)O)c1ccc(Cl)cc1 (stereo not shown), the viability was 88%.
The viability of CNC(=O)Oc1ccccc1OC(C)C is reported as 103%.
With CC(NC(C)(C)C)C(=O)c1cccc(Cl)c1 (stereo not shown) the viability was 84.8%.
The viability of CC(C)N(CCNC(=O)CN1CCCC1=O)C(C)C is reported as 68.2%.
Cn1c(CCCC(=O)O)nc2cc(N(CCCl)CCCl)ccc21 gave a viability of 101%.
C[C@@H]1CC[C@H]2[C@@H](C)C(=O)O[C@@H]3O[C@@]4(C)CC[C@@H]1[C@]32OO4 has a viability of 101%.
For CC(C)N(CCC(C(N)=O)(c1ccccc1)c1ccccn1)C(C)C (stereo not shown), the viability was 93.8%.
N#Cc1nn(-c2c(Cl)cc(C(F)(F)F)cc2Cl)c(N)c1[S+]([O-])C(F)(F)F (stereo not shown) has a viability of 14.8%.

Sample 2 — cell line: HEK-293T/ACE2; concentration: 10 µM; time: 16 h; reference: vehicle
N[C@@H](Cc1ccc(O)c(O)c1)C(=O)O gave a viability of 100%.
CCn1cc(C(=O)O)c(=O)c2cc(F)c(N3CCNC(C)C3)c(F)c21 (stereo not shown) gave a viability of 101%.
Oc1ccc(OCc2ccccc2)cc1 has a viability of 81.6%.
CCCCCCCCCCCCCCCCCCCCCCO gave a viability of 102%.
The viability of CN(C)CCC=C1c2ccccc2CCc2ccccc21 is reported as 100%.
O=c1oc2ccccc2c(O)c1Cc1c(O)c2ccccc2oc1=O has a viability of 97.2%.
CC(C)[C@H](N)C(=O)OCC(CO)OCn1cnc2c(=O)nc(N)[nH]c21 (stereo partly shown) gave a viability of 103%.
For C#C[C@]1(O)CC[C@H]2[C@@H]3CCc4cc(O)ccc4[C@H]3CC[C@@]21C, the viability was 86.2%.
For CC(=O)c1ccc(S(=O)(=O)NC(=O)NC2CCCCC2)cc1, the viability was 98.1%.
With OC(CCCN1CCCCC1)(c1ccccc1)c1ccccc1 the viability was 102%.
CN(C)CCCN1c2ccccc2Sc2ccccc21 gave a viability of 96.7%.
For CC(=O)N[C@@H](CS)C(=O)O, the viability was 103%.
The viability of C[C@]12CCC(=O)C=C1[C@@H]1C[C@@H]1[C@H]1[C@@H]3[C@@H]4C[C@@H]4[C@@]4(CCC(=O)O4)[C@@]3(C)CC[C@@H]12 is reported as 98.3%.
For CCS(=O)(=O)CCn1c([N+](=O)[O-])cnc1C, the viability was 94.2%.

Sample 3 — technique: CCK-8
Compound: CC(C)S(=O)(=O)c1ccc2nccc(Nc3ccc4sc(C5CCCC5)nc4c3)c2c1.Cl
The survival was 95.6% and 101% and 89.3% and 86.3% (L929 RIPK3-/- reexpressing RIPK3 K51A/R69H; 1.563 µM, added: zVAD).
It gave 98% and 96.2% and 101% and 83.3% and 98.8% for survival (L929 RIPK3-/- reexpressing RIPK3 K51A/R69H; 12.5 µM, added: zVAD).
For L929 RIPK3-/- reexpressing RIPK3 K51A; 25 µM, added: zVAD: survival read 89.2% and 113% and 110% and 85.7% and 90.9%.
The survival was 101% and 93.7% and 80.4% and 92.2% (L929 RIPK3-/- reexpressing RIPK3 K51A/R69H; 6.25 µM).
It gave 99.6% and 84.7% and 86.5% and 97.3% for survival (L929 RIPK3-/- reexpressing RIPK3 K51A/R69H; 3.125 µM, added: zVAD).

Other studies, line by line
For CCOC(=O)[C@@H]1CSCC(=O)N[C@H](CC)C(=O)N(C)[C@@H](C)C(=O)N[C@H](CC(C)C)C(=O)N(C)[C@H](C)C(=O)N(CC(C)C)CC(=O)N[C@H](CC(C)C)C(=O)N(C)[C@H](C)C(=O)N[C@@H](CC(C)C)C(=O)N1C, “log k' (60)” read 0.743 (PRP-column chromatography).
